Experimental data gathered from unrelated publications.
Lines come from different studies, so protocols differ. Several values in a cell are separate wells, animals, samples, runs or records. ± gives the spread as reported.

C=C(NC(=O)c1csc(-c2nc3c(cc2O)-c2nc(cs2)C(=O)NC(C(C)O)C(=O)NC(=C(C)OC)c2nc(cs2)C(=O)NC2c4nc(cs4)C(=O)NC(COC(=O)c4c5c6c(cccc6n4O)COC(=O)C(OC4CC(C)(O)C(N(C)C)C(C)O4)C2OC5)c2nc-3cs2)n1)C(N)=O (stereo not drawn)
Tmax (male cynomolgus monkey, plasma; intravenous, 3 mg/kg, single dose, infusion): 40.2 min

CCCCN1C(=O)c2cccc3c(NCCCCCN4CCOCC4)ccc(c23)C1=O
fluorescence lifetime (methanol): 8.8 ns

COc1ccc2c(c1)CCn1c[n+]3c(c1-2)-c1ccc(OC)cc1CC3
Hematocrit (female NSG mice, blood; 6 mg/kg, day 14, 5 days per week): 39.6 ± 3.26%

CC[C@H](C)[C@H](NC(=O)[C@H](N)Cc1ccc(O)cc1)C(=O)N[C@H]1CSSC[C@@H](C(=O)N(C)[C@H](C(=O)N[C@@H](CCCCN)C(=O)N[C@@H](CCCCN)C(=O)N[C@@H](CCCCN)C(N)=O)[C@@H](C)CC)NC(=O)[C@H](CCCNC(=N)N)NC(=O)[C@H](Cc2c[nH]cn2)NC(=O)[C@H](C)NC(=O)CN(C)C(=O)[C@H](Cc2c[nH]c3ccccc23)NC(=O)[C@H](CC(=O)O)NC(=O)[C@H](CCC(N)=O)NC(=O)[C@H](Cc2cn(C)c3ccccc23)NC(=O)[C@H](C(C)C)NC1=O
concentration (SPR-based competition; cynomolgus monkey, vitreous; intravitreal, 500 µg single, 2160 h, mean of eyes): 0.1 to 0.12 µM

[123I]c1ccc2nc(-c3ccc(-n4ccnn4)nc3)cn2c1
tracer uptake (male Wistar rat, lung; intravenous, 4 MBq, 24 h): 0.002 %ID/g

CC[C@H](C)[C@H](NC(=O)[C@H](Cc1ccc(O)cc1)NC(=O)[C@@H](NC(=O)[C@H](CCCNC(=N)N)NC(=O)[C@@H](N)CC(=O)O)C(C)C)C(=O)N[C@@H](Cc1c[nH]cn1)C(=O)N1CCC[C@H]1C(=O)O
plasma concentration (LC-MS/MS; Sprague-Dawley rat, both sexes, plasma; subcutaneous, 10 mg/kg/day, day 0, 0.25 h, 15 min): 25.6 ng/mL

CN(O)C(=O)CCC(=O)NCCCN(CCCCN(CCCNC(=O)CCC(=O)N(C)O)C(=O)CCC(=O)N(C)O)C(=O)CCC(=O)N(C)O.[89Zr]
tracer uptake (mouse, brain; 4 h): 0.02 %ID/g

O=C([O-])CN1CCN(CC(=O)[O-])CCN(C(CO)C(O)CO)CCN(CC(=O)[O-])CC1.[Dy+3] (stereo not drawn)
urinary excretion (ICP-MS; cynomolgus monkey; dose not given, 57 58 d, PK group; baseline: dose): 0.01%

CC(C)[C@H](NC(=O)[C@H](Cc1c[nH]c2ccccc12)NC(=O)[C@H](CCCNC(=N)N)NC(=O)[C@H](CCCNC(=N)N)NC(=O)[C@@H](NC(=O)[C@@H](NC(=O)[C@H](CCCNC(=N)N)NC(=O)[C@@H](NC(=O)[C@@H](NC(=O)[C@H](CCCNC(=N)N)NC(=O)[C@H](CCCNC(=N)N)NC(=O)[C@@H](NC(=O)[C@H](Cc1c[nH]c2ccccc12)NC(=O)[C@H](CCCNC(=N)N)NC(=O)[C@H](CCCNC(=N)N)NC(=O)[C@@H](NC(=O)[C@H](CCCNC(=N)N)NC(=O)[C@H](CCCNC(=N)N)NC(=O)[C@@H](NC(=O)[C@H](Cc1c[nH]c2ccccc12)NC(=O)[C@H](CCCNC(=N)N)NC(=O)[C@@H](N)CCCNC(=N)N)C(C)C)C(C)C)C(C)C)C(C)C)C(C)C)C(C)C)C(C)C)C(=O)N[C@@H](CCCNC(=N)N)C(=O)N[C@@H](CCCNC(=N)N)C(=O)O
sodium (CD1 mouse, urine; intravenous, 15 mg/kg, 6 h, [14C]-labelled compound): < 100 mEq/L

CN1CCN(C(=S)N/N=C/c2ccccc2O)CC1
AUC(0-t) (plasma; intravenous, 30 mg/kg): 2960 ± 369 ng·h/mL

N#C[C@@H]1CC(F)(F)CN1C(=O)CNC(=O)c1ccnc2c(NC(=O)CCOCCOCCOCCOCCOCCOCCNC(=O)C(CCCCNC(=O)CN3CCN(CC(=O)[O-])CCN(CC(=O)[O-])CCN(CC(=O)[O-])CC3)NC(=O)CCCc3ccc(I)cc3)cccc12.[68Ga+3] (stereo partly drawn)
radiochemical stability (PBS; 60 min, 37 °C, 68Ga-labelled): 99.12 ± 0.6%

O=C1c2sc(-c3ccc(N4CCC(F)C4)nc3F)nc2CCN1c1cccnc1 (stereo not drawn)
parent fraction (HPLC; rhesus monkey, plasma; intravenous, 90.02 min): 0.107

Cc1cc(-c2ccc(C(=O)[C@@H]3CCCC[C@H]3C(=O)Nc3cnn4c3C(=O)NCC4)cc2)[nH]n1
recovery of radioactivity per interval (human, urine; oral, 200 mg, 6-12 h; baseline: dose): 2.66%

Cn1cnc([N+](=O)[O-])c1Sc1ccccc1C(=O)NCCC(N)=O
remaining compound (LC-MS/MS; CD-1 mouse, CD-1 mouse blood; 1 µM, 90 min): 10.1%

CCCCN1C(=O)c2cccc3c(NCCN4CCOCC4)ccc(c23)C1=O
Stokes shift (DMSO): 90 nm

Cc1nn(-c2nc3c(F)cc(F)cc3s2)c(O)c1C(c1ccc(C(F)(F)F)cc1)c1c(C)nn(-c2nc3c(F)cc(F)cc3s2)c1O
Vss observed (ICR mouse, plasma; intravenous, 5 mg/kg): 0.758 L/kg and 0.563 L/kg and 1.03 L/kg

C=CC(=O)Nc1cccc(Cn2ncc3cnc(Nc4cnn(CCOC)c4)nc32)c1
remaining compound (mouse, CD-1, both sexes, whole blood; 5 µM, 15 min): 85.3%

CC[C@H](C)[C@@H]1NC(=O)[C@H](Cc2ccc(O)cc2)NC(=O)CCCSC[C@@H](C(=O)N(CC(=O)N[C@@H](CC(C)C)C(=O)NCC(N)=O)Cc2ccc(F)cc2)NC(=O)[C@H](CC(N)=O)NC(=O)[C@H](CCC(N)=O)NC1=O
terminal half-life (healthy human, plasma; intranasal, 400 µg every 3 h, after first dose): 25.2 min

O=C([O-])CN1CCN(CC(=O)[O-])CCN(CC(CCCc2ccccc2[N+](=O)[O-])N(CC(=O)[O-])CC(=O)[O-])CC1.[90Y+3] (stereo not drawn)
intact radiolabelled complex (HPLC; human serum; 0 h, pH 7, 37 °C): 100%

C=CC(=O)Nc1cc(Nc2nccc(-c3c[nH]c4ccccc34)n2)c(OC)cc1N(C)CCN(C)C
recovery (human plasma; 72 h, storage stability, medium QC sample): 51.6%

CC(C)(O)c1ncc([S@](N)(=O)=NC(=O)Nc2c3c(cc4c2CCC4)CCC3)s1
subjects with TEAEs (item: skin, subcutaneous tissue disorders; healthy human; oral, dose not given, 14 days, all active multiple doses pooled): 43%

COc1cc2c(cc1OC)[C@H]1C[C@@H](O)[C@H](CC(C)C)CN1CC2
MRT(0-t) (item: non-deuterated analyte; healthy human male, plasma; oral, 25 mg, geometric mean, [14C]-tetrabenazine dosed): 428 min

O=C(Nc1cnccc1-c1ccc([18F])cc1)c1ccnc(NC(=O)C2CC2)c1
mean SUV (ex vivo gamma counting; GSK-3β transgenic mice, late-stage, muscle; intravenous, 120 min): 0.16

CC(C(=O)O)n1nc(Cn2cc3cc(OCC[18F])c(Cl)cc3n2)c2ccccc2c1=O (racemic)
brain uptake (PET; C57BL/6 mouse male; 40 min): 0.19 %ID/g

O=C(O)CCCOc1ccc([18F])cc1-c1cc(-c2ccccc2C(F)(F)F)n(-c2ccccc2)n1
absorbed dose (OLINDA/EXM from mouse data; human adults, adrenal): 10.5 µGy/MBq

[11CH3]N1CCC(NC(=O)c2cc(-c3c(O)cc(O)cc3Oc3ccc([N+](=O)[O-])cc3)on2)CC1
standardized uptake value (healthy female Wistar rats, lungs; intravenous, 2 min): 1.8 ± 0.3 g/mL

O=C(Nc1cnccc1-c1ccc([18F])nc1)c1ccnc(NC(=O)C2CC2)c1
SUV (mice, transgenic, GSK-3β, early-stage, spleen; intravenous, dose not given, 120 min, together with: tariquidar 15 mg/kg i.v. pre-dose): 0.173

CCCCN1C(=O)c2cccc3c(NCCCCN4CCOCC4)ccc(c23)C1=O
Stokes shift (ethyl acetate): 81 nm

COc1cccc(OC)c1-c1cc(C(=O)NC2(C(=O)O)C3CC4CC(C3)CC2C4)nn1-c1ccc(C(=O)N(C)CCCN(C)C(=O)[C@H](CCCCNC(=O)[C@H](CC(C)C)NC(=O)C2OC2C(=O)O)NC(=O)CN2CCN(CC(=O)[O-])CCN(CC(=O)[O-])CCN(CC(=O)[O-])CC2)cc1C(C)C.[177Lu+3] (mixture of isomers)
tissue uptake (mouse HT-29 xenograft, small intestine; 168 h post injection, biodistribution): 0.039 %ID/g

CC(C)Cc1ccc(C(C)C(=O)NC(CCCCNC(=O)CCOCCOCCOCCOCCOCCOCCNC(=O)CN2CCN(CC(=O)[O-])CCN(CC(=O)[O-])CCN(CC(=O)[O-])CC2)C(=O)Nc2cccc3c(C(=O)NCC(=O)N4CC(F)(F)C[C@H]4C#N)ccnc23)cc1.[68Ga+3] (stereo partly drawn)
radiochemical stability (human serum; 30 min, 37 °C, 68Ga-labelled): 99.53 ± 0.8%

CNc1cc(N)c(C(N)=O)cn1
plasma concentration (Han Wistar rats, male, plasma; oral, 30 mg/kg, 2.00 h): 14.9 µM

C=CC(=O)Nc1cc(Nc2nccc(-c3cn(C)c4ccccc34)n2)c(OC)cc1N(C)CCNC
recovery (storage stability; human plasma; 72 h, -80 °C, LLOQ level): 92.3%

Oc1ccc(Nc2ncnc3[nH]c(/C=C/c4ccccc4)nc23)cc1
purity (HPLC; solution, dark; before light exposure): 99.4%

O=C1c2sc(-c3ccc(N4CCC(CO)CC4)nc3F)nc2CCN1c1cccnc1
concentration (CD1 mouse, plasma; i.v., dose not given, 0.25 h): 58.8 ng/mL and 93.4 ng/mL and 57.3 ng/mL

OCC1OC(n2cnc3c(NCc4ccc(Br)s4)ncnc32)C(O)C1O (stereo not drawn)
fraction unbound (equilibrium dialysis; human plasma; 5 µg/mL, 4 h, pH 7.4): 0.147

CCc1cnc(NC(=O)c2cc(S(=O)(=O)N3CCOCC3)ccc2N(C)C2CCCC2)s1
serum ALT (mouse; 10 mg/kg, 3 doses): 31.7 IU/L

C/C(N)=N/C(=N\S(=O)(=O)c1ccc(C(F)(F)F)cc1)N1C[C@H](c2ccccc2)C(c2ccc(Cl)cc2)=N1
Cmax (C57BL/6 mouse, heart; intravenous, 10 mg/kg): 14300 ng/mL

CCCN(C)c1cc(C(F)(F)F)nc(SCCC(=O)NCc2ccco2)n1
plasma AST (Wistar rat, plasma; intraperitoneal, 25 mg/kg, 2 h post-dose; baseline: vehicle control): no effect

COc1cccc(OC)c1-c1cc(C(=O)NC2(C(=O)O)C3CC4CC(C3)CC2C4)nn1-c1ccc(C(=O)N(C)CCOCCOCCN(C)C(=O)[C@H](CCCCNC(=O)[C@H](CC(C)C)NC(=O)C2OC2C(=O)O)NC(=O)CN2CCN(CC(=O)[O-])CCN(CC(=O)[O-])CCN(CC(=O)[O-])CC2)cc1C(C)C.[177Lu+3] (mixture of isomers)
tumour-to-stomach ratio (mouse HT-29 xenograft; 24 h, biodistribution; baseline: tumour over stomach): 19.8

N#C[C@@H]1CC(F)(F)CN1C(=O)CNC(=O)c1ccnc2c(NC(=O)[C@H](CCCCNC(=O)CCOCCOCCOCCOCCOCCOCCNC(=O)CN3CCN(CC(=O)[O-])CCN(CC(=O)[O-])CCN(CC(=O)[O-])CC3)NC(=O)CCCc3ccc(I)cc3)cccc12.[177Lu+3]
radiochemical stability (PBS; 1 h, 37 °C, 177Lu-labelled): 99.78 ± 0.3%

COCC1CN(C2CCN(c3cc(OC)c(Nc4ncc(Br)c(Nc5ccc6c(c5P(C)(C)=O)OCCO6)n4)cc3C)CC2)C1
adverse events (first-in-human trial; human; oral, 90 mg once daily; treatment-related leading to dose reduction): 0%

CCCCN1C(=O)c2cccc3c(NCCCCCCCCN4CCOCC4)ccc(c23)C1=O
Stokes shift (acetonitrile): 94 nm

CN(Cc1cc(C2CC2)on1)C(=O)c1cccc(-c2ccc(F)cc2)c1
remaining compound (male ICR/CD-1 mouse, liver microsomes; 2 µM, 15 min, pH 7.5, together with: 1-aminobenzotriazole 500 µM, preincubated 30 min): 82%

Cc1ccc(OCC(=O)N(Cc2cccs2)c2ccn[nH]2)cc1
remaining compound (Sprague-Dawley rat liver microsomes; 10 µM, 60 min, NADPH present): 1%

CCCCN1C(=O)c2cccc3c(NCCCCCCCCCCN4CCOCC4)ccc(c23)C1=O
fluorescence quantum yield (1,4-dioxane): 1.13
